Assay results gathered from unrelated publications.
Compare with care: the assays were run in different laboratories. ± gives the spread as reported.
Sequence of UniProt P51659 (whole entry, looked up): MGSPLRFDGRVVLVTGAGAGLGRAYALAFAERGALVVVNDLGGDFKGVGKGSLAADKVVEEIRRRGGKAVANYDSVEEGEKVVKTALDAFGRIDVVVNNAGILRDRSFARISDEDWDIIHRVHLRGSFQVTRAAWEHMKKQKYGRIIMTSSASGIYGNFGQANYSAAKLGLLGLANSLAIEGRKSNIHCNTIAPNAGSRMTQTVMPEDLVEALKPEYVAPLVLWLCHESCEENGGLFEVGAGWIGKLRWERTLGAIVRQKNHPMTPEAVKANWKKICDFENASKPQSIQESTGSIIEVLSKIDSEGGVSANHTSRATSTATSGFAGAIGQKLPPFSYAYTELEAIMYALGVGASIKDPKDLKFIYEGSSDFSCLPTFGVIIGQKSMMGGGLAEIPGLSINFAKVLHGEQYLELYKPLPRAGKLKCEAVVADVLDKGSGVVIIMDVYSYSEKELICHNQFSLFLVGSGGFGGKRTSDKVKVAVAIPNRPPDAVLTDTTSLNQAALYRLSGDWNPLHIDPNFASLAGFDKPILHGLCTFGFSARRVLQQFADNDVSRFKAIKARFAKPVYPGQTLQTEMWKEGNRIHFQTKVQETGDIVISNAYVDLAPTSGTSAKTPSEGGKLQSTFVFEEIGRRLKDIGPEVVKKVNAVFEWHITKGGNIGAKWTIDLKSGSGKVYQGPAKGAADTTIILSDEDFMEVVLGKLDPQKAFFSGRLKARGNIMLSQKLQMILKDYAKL

| SMILES | target or system | test | system | conditions | scale | endpoint | result |
| --- | --- | --- | --- | --- | --- | --- | --- |
| C[C@@H]1NC(=O)[C@H](CCCCNC(=O)CO/N=C/C(=O)NCCCC[C@@H]2NC(=O)[C@@H](Cc3ccccc3)NC(=O)[C@H](CC(=O)O)NC(=O)CNC(=O)[C@H](CCCNC(=N)N)NC2=O)NC(=O)CNC(=O)[C@@H]2CCCN2C(=O)[C@H](CCCCNC(=O)CO/N=C/C(=O)NCCCC[C@@H]2NC(=O)[C@@H](Cc3ccccc3)NC(=O)[C@H](CC(=O)O)NC(=O)CNC(=O)[C@H](CCCNC(=N)N)NC2=O)NC(=O)[C@H](CCCCNC(=O)CN2CCCNCCNCCCNCC2)NC(=O)[C@H](CCCCNC(=O)CO/N=C/C(=O)NCCCC[C@@H]2NC(=O)[C@@H](Cc3ccccc3)NC(=O)[C@H](CC(=O)O)NC(=O)CNC(=O)[C@H](CCCNC(=N)N)NC2=O)NC(=O)CNC(=O)[C@@H]2CCCN2C(=O)[C@H](CCCCNC(=O)CO/N=C/C(=O)NCCCC[C@@H]2NC(=O)[C@@H](Cc3ccccc3)NC(=O)[C@H](CC(=O)O)NC(=O)CNC(=O)[C@H](CCCNC(=N)N)NC2=O)NC1=O [copper-64 labelled] | – | – | normal mice, stomach | intravenous, 0.74 MBq, 24 h post-injection | – | tissue uptake | 1.4 ± 0.17 %ID/g |
| N=C(N)NCCC[C@@H](NC(=O)[C@@H](N)Cc1ccccc1)C(=O)N[C@@H](Cc1ccccc1)C(=O)N[C@@H](CCCCN)C(N)=O | – | – | early Huntington's disease patients, plasma | subcutaneous, 5 mg daily, day 7, median | – | AUC(0-inf) | 882 ng·h/mL |
| CCC(C)c1cc(C(C)(C)C)cc(-n2nc3ccccc3n2)c1O (stereo not shown) | – | – | EpiSkin reconstructed epidermis | concentration not given, 36 h | – | amount in receptor fluid | not detected |
| CCc1ccc(CC/C=C/c2ccc3c(c2)C(=O)CC3)cc1 | – | – | Sprague-Dawley rat, male | oral, 450 mg/kg/day, 14 days | – | Glucose | 5.51 mM |
| COc1ncccc1-c1cnn2ccc(N3CCN(C(=O)OC(C)C)CC3)nc12 | – | – | rat, rotarod test, plasma | 30 mg/kg, 180 min | – | drug concentration | 3.2 µM |
| O=S(=O)([O-])C(F)(F)C(F)(F)C(F)(F)C(F)(F)C(F)(F)C(F)(F)C(F)(F)C(F)(F)F.[K+] | – | – | male C57BL/6J mice, EtOH-fed, plasma | dose not given | reference: efavirenz and pair-fed | triglyceride level | increased |
| CCOc1cc(Oc2ccc(C(F)(F)F)cc2Cl)ccc1[N+](=O)[O-] | – | – | rat male | 7.5 mg/kg, 8 days | – | final body weight | 172 ± 4.69 g |
| CC/C(=C(\c1ccccc1)c1ccc(OCCN(C)C)cc1)c1ccccc1 | – | – | CD-1 mouse, male, lung | intraperitoneal, 1 mg/kg | – | Tmax | 6 h |
| COc1cc2c(Oc3ccc4[nH]c(C)cc4c3F)ccnc2cc1OCC1(N)CC1 | – | – | paediatric recurrent refractory sarcoma | 12 mg | – | grade 3 Tinnitus | 0% |
| O=C(Nc1ccccc1)C1CCN(C(=O)Oc2cccnc2)CC1 | – | – | healthy women | oral, 100 mg, 9 days | – | back pain adverse events | 0% |
| COc1ccc2c(c1)CN(C(=O)CCN1CCC(Cc3ccccc3)CC1)CC[S@@+]2[O-] | – | – | female Beagle dogs, chronic AV block, plasma | intravenous, 1 mg/kg, end of 10 min infusion | – | plasma concentration | 829 ± 289 ng/mL |
| CC(C)C[C@@H]1NC(=O)CNC(=O)[C@H](CCCCN)NC(=O)[C@H](CCCNC(=N)N)NC(=O)[C@H]([C@@H](C)O)NC(=O)[C@@H]2CSSC[C@@H]3NC(=O)[C@H]([C@@H](C)O)NC(=O)CNC(=O)CNC(=O)[C@H](C(C)C)NC(=O)[C@@H]4CSSC[C@H](NC(=O)[C@H](CCCCN)NC(=O)[C@H](CSSC[C@H](NC(=O)[C@H](C(C)C)NC(=O)[C@@H]5CCCN5C1=O)C(=O)NCC(=O)N[C@@H](CCC(=O)O)C(=O)N[C@@H]([C@@H](C)O)C(=O)N4)NC(=O)CNC(=O)[C@@H]1CCCN1C(=O)[C@H]([C@@H](C)O)NC(=O)[C@H](CC(N)=O)NC3=O)C(=O)N[C@@H](CO)C(=O)N[C@@H](Cc1c[nH]c3ccccc13)C(=O)N1CCC[C@H]1C(=O)N[C@@H](C(C)C)C(=O)N2 | – | HPLC | ammonium bicarbonate 0.1 M | 180 µM, 7 days, pH 9.0, 37 °C, deamidation stability | – | remaining peptide | 100% |
| COc1ccc2nc3cc(Cl)ccc3c(Nc3cc(CN4CCCC4)c(O)c(CN4CCCC4)c3)c2n1 | – | – | mouse, blood | intraperitoneal, 14 mg/kg | – | neutrophils | 15.6% |
| Nc1nc2cc(-c3ccc4ncc(C(=O)N5CCOCC5)n4c3)ccc2o1 | – | – | human, advanced solid tumours | 100–300 mg once daily, any cause, grade ≥3 | – | elevated AST adverse events | 13% |
| CCOC(=O)C1=C[C@@H](OC(CC)CC)[C@H](NC(C)=O)[C@@H](N)C1 | – | – | Sprague-Dawley rat male, plasma and urine | oral, 30 mg/kg | – | volume of distribution | 104 mL |
| NCCCC[C@@H]1NC(=O)[C@@H](Cc2c[nH]c3ccccc23)NC(=O)[C@H](c2ccccc2)NC(=O)[C@@H]2C[C@@H](OC(=O)NCCN)CN2C(=O)[C@H](Cc2ccccc2)NC(=O)[C@H](Cc2ccc(OCc3ccccc3)cc2)NC1=O | – | – | healthy volunteers | subcutaneous, 1950 µg twice daily, day 5, 3.00 h | – | QTcI change from baseline | 11.4 ms |
| c1ccc2c(c1)-c1cccc3c1c-2cc1ccccc13 | – | – | fresh water | 12 (unit not given), 20 °C | – | log K(PDMS-water) | 5.18 ± 0.04 |
| CN(C)C(=O)c1cc2cnc(Nc3ccc(N4CCNCC4)cn3)nc2n1C1CCCC1 | – | measured: Renal toxicity, AESI | human, HR+/HER2− advanced breast cancer | oral, dose not given, all grades, CTCAE v4.03 | – | patients with adverse event | 5.4% |
| CC(C)C[C@@H]1NC(=O)CNC(=O)[C@H](CC(N)=O)NC(=O)[C@H](CCCNC(=N)N)NC(=O)[C@H]([C@@H](C)O)NC(=O)[C@@H]2CSSC[C@@H]3NC(=O)[C@H]([C@@H](C)O)NC(=O)CNC(=O)CNC(=O)[C@H](C(C)C)NC(=O)[C@@H]4CSSC[C@H](NC(=O)[C@H]([C@@H](C)O)NC(=O)[C@H](CSSC[C@H](NC(=O)[C@H](C(C)C)NC(=O)[C@H](CCCCN)NC1=O)C(=O)NCC(=O)N[C@@H](CCC(=O)O)C(=O)N[C@@H]([C@@H](C)O)C(=O)N4)NC(=O)CNC(=O)[C@@H]1CCCN1C(=O)[C@H]([C@@H](C)O)NC(=O)[C@H](CC(N)=O)NC3=O)C(=O)N[C@@H](CO)C(=O)N[C@@H](Cc1c[nH]c3ccccc13)C(=O)N1CCC[C@H]1C(=O)N[C@@H](C(C)C)C(=O)N2 | – | HPLC | ammonium bicarbonate | 180 µM, 7 days, pH 9.0, 25 °C, deamidation stability | – | remaining peptide | 30.4 ± 2.3% |
| CC(=O)N1CCC(C(=O)N2CCN3C(=O)c4cc(-c5ccccc5)ccc4NC(=O)C3C2)CC1 (stereo not shown) | Salmonella typhimurium | – | TA100 | 1.58 µg/plate, without S9 | – | revertants per plate | 93.5 |
| CC1(C)[C@H](C(=O)OCc2cccc(Oc3ccccc3)c2)[C@@H]1C=C(Cl)Cl | – | measured: CYP2B6 | human, age 1 year, recombinant human CYP2B6 | 0.1 µM | – | enzyme contribution to clearance | 2.66% |
| O=c1ccc2ccccc2o1 | NHEK | cell count | – | concentration not given, 1 h, XBP1 panel | – | chance response | 0.04% |

| SMILES | target or system | test | system | conditions | scale | endpoint | result |
| --- | --- | --- | --- | --- | --- | --- | --- |
| c1cc2ccc3cccc4ccc(c1)c2c34 | – | – | polyethylene-water partitioning | PAH compilation | reference: maximum over minimum K | literature range factor | 4 |
| CCS(=O)(=O)Nc1ccc(Oc2ccc(F)cc2F)c(-c2cn(C)c(=O)c3[nH]ccc23)c1 | – | fatal fungal infection | human, relapsed/refractory AML | oral, dose not given | – | treatment-emergent adverse events | 0% |
| O=[N+]([O-])c1ccc2c(c1)S(=O)(=O)C=C2 | – | – | male C57BL/6 mice, blood | intraperitoneal, 20 mg/kg, day 8, group average | – | red cell distribution width CV | 0.14% |
| CN(C)CCCN1c2ccccc2Sc2ccccc21 | Plasmodium falciparum | – | Dd2 | – | – | IC50 | 1.58 µM |
| c1ccc2cc3c(cc2c1)-c1cccc2cccc-3c12 | – | – | fresh water | 12 (unit not given), 20 °C, S30-2 sampler, 30 µm | – | log K(PDMS-water) | 5.26 ± 0.03 |
| CC(=O)c1c(C)c2cnc(Nc3ccc(C4CCN(CCS(C)(=O)=O)CC4)cn3)nc2n(C2CCCC2)c1=O | – | – | human, dose-escalation trial, plasma | oral, 100 mg twice daily, day 21, multiple doses | – | AUC(0-t) | 3440 ng·h/mL |
| COc1cccc(-c2ccnc(Nc3ccc(N4CCN(C)CC4)c(C(F)(F)F)c3)n2)c1 | – | – | Danio rerio embryos | 5 µM, 5 d | – | toxicity | 74 ± 26% |
| C[C@@H](NC(=O)N1C(=O)[C@H](Cc2ccnc(N)c2)[C@H]1C(=O)O)C1CCCCC1 | – | – | healthy adult Chinese volunteers | continuous intravenous infusion, 1.0 mg/kg/h, 5-day infusion, CTCAE 5.0 grading | – | incidence of hypokalemia | 12.5% |
| COc1cccc2c1CCCC2CCCN1CCN(C2CCCCC2)CC1 (stereo not shown) | – | – | CD-1 mouse, male, plasma | intraperitoneal, 3 mg/kg | – | AUC(0-t) | 96 ng·h/mL |
| Nc1ncc(-c2nc(N3CCOCC3)nc(N3CCOCC3)n2)c(C(F)F)n1 | – | – | Wistar rat, both sexes, blood | oral gavage, 14-day pilot toxicity study | – | apparent half-life | 2.3 to 5.7 h |
| Cn1cc(-c2nc(N[C@@H]3CCCC[C@@H]3N)c(F)c3c2C(=O)NC3)cn1 | – | measured: gingival bleeding | patients with relapsed or refractory AML | oral, 60 mg once daily | – | hemorrhagic adverse events | 25% |
| COc1c(OCCCN2CCOCC2)ccc2c1N=C(NC(=O)c1cnc(N)nc1)N1CCN=C21 | – | – | human, non-diabetic, normal baseline HbA1c | concentration not given, after treatment | – | HbA1c | 5.9 ± 0.5% |
| CC(C)(O)c1cc(Nc2cc(Oc3cn(C4CC4)nc3C3CCOCC3)ccn2)ccn1 | – | Asthenia | advanced cancer patients, dose escalation | oral, dose not given, 3 weeks on/1 off, all causality grade ≥3 | – | treatment-emergent adverse events | 6% |
| CO[C@H]1C[C@@H]2CC[C@@H](C)[C@@](O)(O2)C(=O)C(=O)N2CCCC[C@H]2C(=O)O[C@H]([C@H](C)C[C@@H]2CC[C@@H](OC(=O)NCCOCCOCCOCCOCCOCCOCCOCCOCCC(=O)N3CCc4cc(Cn5nc(-c6ccc7oc(N)nc7c6)c6c(N)ncnc65)ccc4C3)[C@H](OC)C2)C[C@@H](O)[C@H](C)/C=C(\C)[C@@H](O)[C@@H](OC)C(=O)[C@H](C)C[C@H](C)/C=C/C=C/C=C/1C | – | – | patients with advanced solid tumours | intravenous, 12 mg weekly, any grade | – | headache incidence | 41.7% |
| O=C(O)CCCOc1ccc(F)cc1-c1cc(-c2ccccc2C(F)(F)F)n(-c2ccccc2)n1 | – | – | male Crl:CD(SD) rats, brain | intravenous, 25 µg/kg, 14 d | – | relative organ weight | 0.49 ± 0.02 g% |
| C=CCc1ccccc1OCC(O)CNC(C)C (stereo not shown) | Plasmodium falciparum | – | D10 | – | – | IC50 | 10 µM |
| O=S(=O)(Nc1ccccc1)c1ccc(NC(=S)Nc2ccccc2)cc1 | – | measured: Glu | female mouse, blood | oral, 20 mg/kg daily, 14 days | – | blood chemistry level | 178 mg/dL |
| Cc1ccc(F)c2cc(C(=O)N[C@@H]3CCC[C@H](N4CC[C@H](N(C)S(C)(=O)=O)C4)C3)[nH]c12 | – | – | CD1 mouse | oral, 100 mg/kg | – | fraction absorbed | > 1 |
| Clc1cc(Cl)c(-c2ccc(Cl)c(Cl)c2Cl)cc1Cl | – | – | fresh water | 20 °C, S100 sampler, 100 µm | – | log K(PDMS-water) | 6.4 ± 0.05 |
| N.N.O=C([O-])C1(C(=O)[O-])CCC1.[Pt+2] | – | ICP-MS platinum, measured: platinum | human patients, plasma | dose not given, carboplatin target AUC 4, cycle 1 day 1 | – | AUC(0-48 h) | 124000 ng·h/mL |
| C[C@H]1CN(c2n[nH]c3nc(N[C@H]4CC[C@H](NS(=O)(=O)CCC(F)(F)F)CC4)ncc23)CCO1 | HSD17B4 (Homo sapiens, UniProt P51659) | inhibitor, Kinobeads competition profiling | – | 0.16 µM | reference: vehicle | relative abundance | 1 |

Some of these lines once more:
| SMILES | target or system | test | system | conditions | scale | endpoint | result |
| --- | --- | --- | --- | --- | --- | --- | --- |
| O=S(=O)(Nc1ccccc1)c1ccc(NC(=S)Nc2ccccc2)cc1 | – | measured: Glu | female mouse, blood | oral, 20 mg/kg daily, 14 days | – | blood chemistry level | 178 mg/dL |
| Cc1ccc(F)c2cc(C(=O)N[C@@H]3CCC[C@H](N4CC[C@H](N(C)S(C)(=O)=O)C4)C3)[nH]c12 | – | – | CD1 mouse | oral, 100 mg/kg | – | fraction absorbed | > 1 |
| Clc1cc(Cl)c(-c2ccc(Cl)c(Cl)c2Cl)cc1Cl | – | – | fresh water | 20 °C, S100 sampler, 100 µm | – | log K(PDMS-water) | 6.4 ± 0.05 |
| N.N.O=C([O-])C1(C(=O)[O-])CCC1.[Pt+2] | – | ICP-MS platinum, measured: platinum | human patients, plasma | dose not given, carboplatin target AUC 4, cycle 1 day 1 | – | AUC(0-48 h) | 124000 ng·h/mL |
